Results of several laboratories.
Every numbered part comes from another study and shows a few of its results, in no order.

Block 1 — effect on: enzyme activity; mode: inhibitor; concentration: 0.5 µM; baseline: control
Target: Cyclin-dependent kinase 9, with cyclin T1 (CDK9, Homo sapiens, UniProt P50750)
Chain of UniProt P50750 (whole entry, looked up): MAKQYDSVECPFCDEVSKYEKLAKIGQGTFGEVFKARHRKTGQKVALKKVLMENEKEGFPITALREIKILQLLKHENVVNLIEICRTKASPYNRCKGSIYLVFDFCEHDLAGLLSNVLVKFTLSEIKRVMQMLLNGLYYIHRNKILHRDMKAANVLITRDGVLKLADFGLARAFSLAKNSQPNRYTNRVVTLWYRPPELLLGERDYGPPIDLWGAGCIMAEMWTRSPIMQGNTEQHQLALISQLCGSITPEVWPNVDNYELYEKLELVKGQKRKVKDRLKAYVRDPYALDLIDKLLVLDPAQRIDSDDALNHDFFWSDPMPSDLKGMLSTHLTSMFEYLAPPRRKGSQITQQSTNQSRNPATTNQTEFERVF
SMILES | remaining activity
O=C(O)c1ccc2c3c1cccc3c(=O)n1c3ccccc3nc21 | 78.3%
CN(C)c1ccc(C=C2C(=O)Nc3ccccc32)cc1 | 94.5%
O=C1NC(=O)C(c2cn(CCCO)c3ncccc23)=C1c1cnccn1 | 88.3%
O=S(=O)(c1cccc2cnccc12)N1CCCNCC1 | 80.7%
O=C(CCCc1ccc(-c2ccccc2F)cc1)Nc1ccc(O)cc1 | 103%
Cn1c2ccccc2c2c3c(c4c5ccccc5n(CCC#N)c4c21)CNC3=O | 46.8%
Cc1nc(-c2ccccc2)c(-c2ccncc2)o1 | 84.6%
O=C1NC(=O)C(c2cn(CCCn3ccnc3)c3ccccc23)=C1Nc1ccccc1 | 51.3%
CNC(=O)c1cc(Oc2ccc(NC(=O)Nc3ccc(Cl)c(C(F)(F)F)c3)cc2)ccn1 | 98.3%
Nc1ccc2ncnc(NCCc3ccc(Oc4ccccc4)cc3)c2c1 | 101%
COc1ccc(OC)c2c(=S)c3ccccc3[nH]c12 | 98.8%
Cn1sc(=O)n(Cc2ccccc2)c1=O | 94.2%
CCOC(=O)c1c(C)[nH]c(/C=C2\C(=O)Nc3ccccc32)c1C | 94.7%
N#CC(C#N)=C(N)/C(C#N)=C/c1ccc(O)cc1 | 83.9%

Block 2 — effect on: ligand displacement; concentration: 10 µM
Target: 5-hydroxytryptamine receptor 7 (HTR7, Homo sapiens, UniProt P34969)
Chain of UniProt P34969 (whole entry, looked up): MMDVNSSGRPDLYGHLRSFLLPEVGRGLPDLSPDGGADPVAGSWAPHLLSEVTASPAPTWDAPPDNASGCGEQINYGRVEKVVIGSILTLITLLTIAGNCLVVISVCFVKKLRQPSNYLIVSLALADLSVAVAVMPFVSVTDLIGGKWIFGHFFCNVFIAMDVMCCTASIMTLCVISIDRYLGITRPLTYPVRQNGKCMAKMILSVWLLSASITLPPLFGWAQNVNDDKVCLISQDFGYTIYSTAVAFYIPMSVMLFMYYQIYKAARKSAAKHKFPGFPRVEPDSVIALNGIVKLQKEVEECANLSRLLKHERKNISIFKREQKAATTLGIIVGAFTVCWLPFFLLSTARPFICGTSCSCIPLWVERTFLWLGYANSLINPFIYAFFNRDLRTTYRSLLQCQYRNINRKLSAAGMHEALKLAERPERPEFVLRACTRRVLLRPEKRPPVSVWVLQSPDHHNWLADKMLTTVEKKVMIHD
SMILES | inhibition [%]
O=C(NCCCC1CCCCC1)c1ccc(CNC(=O)c2cnn(-c3ccccc3)c2C(F)(F)F)cc1 | 25.8
CN(C)c1ncnc(-c2ccc3nc(Nc4cc(CN5CCN(C(=O)CC(F)(F)F)CC5)ccn4)[nH]c3c2)c1Cl | 13.4
CS(=O)(=O)N1CCCC(NC(=O)[C@H](CCC2CCCCC2)NC(=O)c2ccc(CNC(=O)c3cnc4ccccn34)cc2)C1 (some centres unmarked) | 11.3
Cn1cc(Cl)c2c(Oc3c(F)cc(Nc4cc(Cl)nc(N)n4)cc3F)ccnc21 | -1.63
COc1ccc2cc(OCC3(C(=O)O)CN(C(=O)c4ccc(F)cc4)C3)ccc2c1 | -9.26
c1ccc(C2CCN(c3cnc4c(N5CCOCC5)nccn34)CC2)cc1 | 20.2
CC1=C(C#N)C(c2ccc3[nH]nc(C)c3c2)C(C#N)=C(C)N1 | -0.97
CN1CCN(C(=O)C(C)(C)c2ccc(C(=O)Nc3cn4cc(-c5cc(C(C)(C)C)cc(C(C)(C)C)c5)ccc4n3)cc2)CC1 | 45.2
Nc1cnc(N2CCc3cc(S(=O)(=O)Nc4c(F)cc(Cl)cc4F)cc(N4CCCC4=O)c32)nc1 | 0.94

Block 3 — cell line: HuT78; concentration: 2 µM; time: 48 h; baseline: untreated
Structure (SMILES) | viability [%]
COc1cc2c(Nc3ccc(NC(=O)c4ccccc4)cc3)ncnc2cc1OCCCN1CCOCC1 | 93.1
Cc1ccc(F)c(NC(=O)Nc2ccc(-c3cccc4[nH]nc(N)c34)cc2)c1 | 143
Cn1cc(-c2ccc3ncc(Cc4ccc5ncccc5c4)n3n2)cn1 | 91.7
NC(=O)c1cccc(-c2cc(Nc3ccc(OC(F)(F)F)cc3)ncn2)c1 | 115
CNC(=O)c1nn(C)c2c1C(C)(C)Cc1cnc(Nc3ccc(N4CCN(C)CC4)cc3)nc1-2 | 82.1
Cc1cc(F)c(Nc2ncnc3cc(OCc4ccccc4)ccc23)cc1O | 110
C=CC(=O)Nc1cccc(Oc2nc(Nc3ccc(N4CCN(C)CC4)cc3)nc3ccsc23)c1 | 116
c1cc(-c2cnn3cc(-c4ccc(OCCN5CCCCC5)cc4)cnc23)ccn1 | 104
CN1CCN(c2ccc(C(=O)Nc3n[nH]c4ccc(Cc5cc(F)cc(F)c5)cc34)c(NC3CCOCC3)c2)CC1 | 114
COc1ccccc1-c1cc(Nc2cccc(CS(N)(=O)=O)c2)ncn1 | 138

Block 4 — species: mouse; medium: microsomes or S9; concentration: 2 µM; time: 0.5 h
SMILES | remaining compound [%]
Cc1cc2nc(NC(=O)N3CCN(c4cc(C(C)(C)C)cc(C(C)(C)C)c4)CC3)sc2cc1C | 28.2
CC(C)Nc1ncnc2onc(-c3cc(F)cc(F)c3)c12 | 26.8
COCCOC(=O)c1c(C)[nH]c(C(=O)N2CCOc3ccc(S(C)(=O)=O)cc32)c1C | 81.2
COc1ccc(C2(C)CC(C)(C)Nc3ccccc32)cc1 (centres unmarked) | 0.191
CCc1csc(Cn2cc(C(C)c3ccccc3)nn2)n1 (centres unmarked) | 10.6
O=C(CN1CCCCCC1)NCC12CCCC=C1NC(=O)CC2 (centres unmarked) | 26.5
CCCNC(=O)[C@H](CC(C)C)NC(=S)NCCC | 47.5
COc1ccc2c[nH]c(=O)c(-c3nc4ccccn4c3Nc3ccc(OC)c(OC)c3)c2c1 | 25.3
CCC(C)(NCc1nnc(-c2ccc(F)cc2)o1)c1nc(C)cs1 (centres unmarked) | 0.0353
Cc1ccc(C2=CC(c3cccc(Cl)c3)n3ncnc3N2)cc1 (centres unmarked) | 0
Cc1nn2c(nnc3c(=O)n(-c4nnc[nH]4)ccc32)c1-c1ccccc1 | 85.6

Some of these lines once more (block 1):
SMILES | remaining activity
O=C1NC(=O)C(c2cn(CCCn3ccnc3)c3ccccc23)=C1Nc1ccccc1 | 51.3%
O=C(CCCc1ccc(-c2ccccc2F)cc1)Nc1ccc(O)cc1 | 103%
O=C(O)c1ccc2c3c1cccc3c(=O)n1c3ccccc3nc21 | 78.3%
CCOC(=O)c1c(C)[nH]c(/C=C2\C(=O)Nc3ccccc32)c1C | 94.7%
O=S(=O)(c1cccc2cnccc12)N1CCCNCC1 | 80.7%
COc1ccc(OC)c2c(=S)c3ccccc3[nH]c12 | 98.8%
